Results collected from several papers.
Numbered parts are unrelated; each lists some results of a single study. Changes are numbered by the printed parent chain.

Study 1 — target: CCND1, cyclin fold, Cln2 fusion (human); technique: yeast growth competition, sequencing; sample: yeast; notes: strong parent motif; reference: not given; direction: higher = stronger binding; quantity: normalised enrichment score
Starting sequence: RBL2 docking peptide (human); STTRRRLFVENDS; partner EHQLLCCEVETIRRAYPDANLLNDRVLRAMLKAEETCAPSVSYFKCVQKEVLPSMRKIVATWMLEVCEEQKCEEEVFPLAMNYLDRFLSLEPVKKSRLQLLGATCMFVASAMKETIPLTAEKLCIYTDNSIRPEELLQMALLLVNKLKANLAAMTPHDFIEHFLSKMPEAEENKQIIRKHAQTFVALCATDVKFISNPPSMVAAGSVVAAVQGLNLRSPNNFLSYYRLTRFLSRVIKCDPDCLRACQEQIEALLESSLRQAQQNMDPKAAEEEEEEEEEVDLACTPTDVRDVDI
S13L: 0.64
V9P: 0.651
R4K: 0.533
N11R: 0.391
R6T: 0.472
L7D: 0.515
R5P: 1.65
S13E: 1.6
E10D: 1.9
N11L: 0.0671
R4A: 2.04
E10W: 0.0439
T2C: 1.14
E10P: 0.772
R6S: 1.21
R5I: 0.378
R5T: 0.391
R5D: 0.172
T2D: 1.12
R5S: -0.294
L7K: -0.463
E10L: -0.272
R5E: 0.0517
R4S: 0.45
L7G: -0.706

Study 2 — technique: aptamer microarray, sandwich; form: DNA with 2'F-ANA; sample: in vitro; tested at: 200 nM; added: Cy3 exosite-II aptamer, 400 nM; direction: higher = stronger binding; quantity: mean fluorescence intensity; sequence: GGTTGGTGTGGTTGG
Target: Prothrombin, mature alpha-thrombin (F2, Homo sapiens, UniProt P00734)
Notes: whole 15-mer aptamer, many near background
2'F-ANA at 1 2 5 8 10 13 14: 46.7 a.u.
2'F-ANA at 2 5 6 7 8 9 10 14 15: 71.2 a.u.
2'F-ANA at 3 4 5 8 10 11 12 14 15: 79.1 a.u.
2'F-ANA at 1 2 3 4 7 9 11 13 15: 280 a.u.
2'F-ANA at 1 2 4 5 6 7 8 11 12 15: 198 a.u.
2'F-ANA at 3 5 7 8 9 10 14: 52.9 a.u.
2'F-ANA at 2 4 5 7 9 10 12 13 14: 49.2 a.u.
2'F-ANA at 5 6 7 12: 135 a.u.
2'F-ANA at 5 6 7 10 11 12 14 15: 187 a.u.
2'F-ANA at 2 4 9 10 12: 198 a.u.
2'F-ANA at 1 3 4 6 9 11 15: 138 a.u.
2'F-ANA at 3 7 8 9 13 14 15: 671 a.u.
2'F-ANA at 2 4 6 7 8 11 12 13: 367 a.u.
2'F-ANA at 1 2 3 12: 436 a.u.
2'F-ANA at 3 4 5 6 7 9 10 13 14 15: 309 a.u.
2'F-ANA at 1 2 3 8 9 10 12 15: 97.1 a.u.
2'F-ANA at 2 3 4 5 6 7 10 12: 59.8 a.u.
2'F-ANA at 1 2 3 10 11 12 13 15: 85.4 a.u.

Study 3 — technique: protein-binding microarray; form: double-stranded DNA, one strand shown; sample: in vitro; tested at: 2200 nM top; notes: 60-bp whole probe; added: salmon DNA 0.4 mg/ml; reference: random background probes; direction: higher = stronger binding; quantity: fitted relative affinity; shared flanks, not repeated: GCCTAGCAC … GTCTTGATTCGCTTGACGCTGCTG
Target: Interferon regulatory factor 7, full length, phosphomimetic (IRF7, Homo sapiens, UniProt Q92985, residues 1-503, S471D/S472D/S475D/S476D/S477D/S483D/S484D/S487D)
Sequence of UniProt Q92985 (whole entry, unmodified, looked up): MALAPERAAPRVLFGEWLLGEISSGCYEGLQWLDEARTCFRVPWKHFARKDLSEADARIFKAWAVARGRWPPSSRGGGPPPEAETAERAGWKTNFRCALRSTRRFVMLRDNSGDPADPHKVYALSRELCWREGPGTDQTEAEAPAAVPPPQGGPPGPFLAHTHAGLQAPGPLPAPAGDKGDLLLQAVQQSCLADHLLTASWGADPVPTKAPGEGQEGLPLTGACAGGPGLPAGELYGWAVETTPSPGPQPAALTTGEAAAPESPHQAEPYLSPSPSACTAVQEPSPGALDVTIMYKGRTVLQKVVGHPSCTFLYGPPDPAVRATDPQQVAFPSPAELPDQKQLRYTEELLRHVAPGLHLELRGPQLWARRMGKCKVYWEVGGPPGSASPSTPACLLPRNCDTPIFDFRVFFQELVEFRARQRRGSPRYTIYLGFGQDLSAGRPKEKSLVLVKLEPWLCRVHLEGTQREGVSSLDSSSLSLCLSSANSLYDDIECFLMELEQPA
TTAGGACTGGGTACCGGTTAGTGCTAG: -0.876 z-score
GACCATTTCGGGTATCGAGACGTGCTA: 2.13 z-score
GACGGTATCGGATTCGGGACGTGCTAG: 0.904 z-score
GAGGATCTCAGACTGGAGACGTGCTAG: -0.341 z-score
ATGGAAATCTCAATGGGTTAGTGCTAG: -0.138 z-score
TTAGGTTTCGAGACTGGGTTAGTGCTA: 2.83 z-score
TTAGGTATCGGTACTGGGTTAGTGCTA: 0.137 z-score
TTAGATCTCAGTTTCCATTAGTGCTAG: 2.27 z-score
TGAGAACTGAGTCTCGATTAGTGCTAG: -0.156 z-score
TTAGGTTTCCTTCTCCATTAGTGCTAG: 2.37 z-score
TTAGGTATCGGGTCTCGGTTAGTGCTA: 0.941 z-score
TTAGTTTTCGGTATCGGTTAGTGCTAG: 8.04 z-score
TTAGGATTGGGACTGGGTTAGTGCTAG: -0.333 z-score
TTAGGTTTCCTACTGCTTCAGTGCTAG: 1.16 z-score
GACGTTCTCCTTCTCCTGACGTGCTAG: 1.9 z-score
TTAGGACTGGTACTGCTTTAGTGCTAG: -0.245 z-score
GACGGTAACGGGACTGGGGACGTGCTA: -0.987 z-score
GACGATTTCAGTATCGAGACGTGCTAG: 1.01 z-score
GCCGGTATCGACTTTCGGGACGTGCTA: 3.23 z-score

Study 4 — technique: RNA Bind-n-Seq; form: RNA; sample: in vitro; tested at: 365 nM; reference: no-protein control; direction: higher = stronger binding; quantity: RBNS enrichment (R)
Target: RNA binding protein fox-1 homolog 2, RRM domain, GST-SBP tag (RBFOX2, Homo sapiens, UniProt O43251-10, residues 100-194)
Notes: natural RNA segment, single round, ends assumed
Residues (chain): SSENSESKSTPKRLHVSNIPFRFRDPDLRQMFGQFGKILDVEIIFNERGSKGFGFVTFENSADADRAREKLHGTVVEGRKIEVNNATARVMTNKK
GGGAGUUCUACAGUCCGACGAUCAACUGAUACAUAGAACCAAGGAGCACUCAAAUAGGGAGCCAGGAGCCAGGGAGCUGGUGACACUUGUGUGCUGUGGGGCAGCUGGGAUCCAGGUAAGACCGGAUUGAAGCUGGAAUUCUCGGGUGCCAA: 0.362
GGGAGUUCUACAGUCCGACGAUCUCUUACAGAGUAUCUUUAAAAGUGCCUUAGGGGAACCCUGUCCCUCCUAACAAGUGUAUCUCGAUUAAUAACCUGCCAGUCCCAGAUCACACAUCAUCAUCGAAGUCUUCUGGAAUUCUCGGGUGCCAA: 0.456
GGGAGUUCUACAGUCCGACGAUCAGUUCUGAGAUGGAAAGUUGAAGGGGGCAAGCAAGACCUCUCCUCAGCCCAUGCCCAGCUGUCAGGAGAGAGGUGCAGGGAGGAAGGCCUUGUGCUGGGACAACCUCUCUUGGAAUUCUCGGGUGCCAA: 0.635
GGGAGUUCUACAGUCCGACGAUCGGCUCCCAAGGUUCUGCAGGAAAGCAGACCUGCACACAGAUCCCGUGGCUGCUGAAAAGACACAUGUUCACAUGGAGACAAACCAAGCUGCUCGCUCUCGGCUGUAUGCAUGGAAUUCUCGGGUGCCAA: 2.86
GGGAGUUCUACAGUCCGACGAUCCCAGGUCACGUGUAGGACGUGCUUAUCCAGUUUUUUCCCCCUUUACCUGCAUAGUUGCUACAUACAUGUUUCUCACUGUAAAAGGCUGCCGCUGGGUGGCAGAAGCCAAAUGGAAUUCUCGGGUGCCAA: 0.469
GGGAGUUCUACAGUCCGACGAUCCGGUUUCUCCCAUCCGUGUUCCAGCAUCUAACCUUUUACUUUUGCAUAGGAAAUACUUGAUUUAAUUACAGGUCCAGGGAUGAGCUGAUGGUUGCUGGAGGAGGCCAGUGUGGAAUUCUCGGGUGCCAA: 0.409
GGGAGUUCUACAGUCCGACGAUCCUGGCCCCCAGCCCCCAGCAAGCCUGAGCCCGGGAAGAACCAGAGGCCCUCCCGAGAGACCCAGUCACACGUCUCUGCUUUAAGCCUUAGCCAGCUAGUGACGAGUACAAUGGAAUUCUCGGGUGCCAA: 0.335
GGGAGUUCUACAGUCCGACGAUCGAAAUUCAUUCAAAACCCGUUAGAGUCAUAGAAUUUUUUGAAAGGCAAAUUAUAAAAGUAAACAGGUUUUUUUGUUUGGUUUUUCAAUCAUAGCAAUCGGAAUUAUUUUAUGGAAUUCUCGGGUGCCAA: 0.58

Other studies, line by line
PhoQ, residues 284 288 289 292 302 303 SSLVEF
fold induction (PhoP, residues 12 14 15 18 19 NHTVL (Escherichia coli, UniProt P23836); Sort-seq, refers to: YFP reporter; E. coli; PhoQ-PhoP variant library, added: 10 µM Mg2+; reference: high Mg2+ state, higher = stronger signaling): 8.23

Repeated from above (study 4):
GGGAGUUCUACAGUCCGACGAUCCGGUUUCUCCCAUCCGUGUUCCAGCAUCUAACCUUUUACUUUUGCAUAGGAAAUACUUGAUUUAAUUACAGGUCCAGGGAUGAGCUGAUGGUUGCUGGAGGAGGCCAGUGUGGAAUUCUCGGGUGCCAA: 0.409
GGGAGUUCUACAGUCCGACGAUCAACUGAUACAUAGAACCAAGGAGCACUCAAAUAGGGAGCCAGGAGCCAGGGAGCUGGUGACACUUGUGUGCUGUGGGGCAGCUGGGAUCCAGGUAAGACCGGAUUGAAGCUGGAAUUCUCGGGUGCCAA: 0.362
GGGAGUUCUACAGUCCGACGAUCGAAAUUCAUUCAAAACCCGUUAGAGUCAUAGAAUUUUUUGAAAGGCAAAUUAUAAAAGUAAACAGGUUUUUUUGUUUGGUUUUUCAAUCAUAGCAAUCGGAAUUAUUUUAUGGAAUUCUCGGGUGCCAA: 0.58
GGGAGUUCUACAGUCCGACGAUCAGUUCUGAGAUGGAAAGUUGAAGGGGGCAAGCAAGACCUCUCCUCAGCCCAUGCCCAGCUGUCAGGAGAGAGGUGCAGGGAGGAAGGCCUUGUGCUGGGACAACCUCUCUUGGAAUUCUCGGGUGCCAA: 0.635
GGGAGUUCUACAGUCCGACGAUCCCAGGUCACGUGUAGGACGUGCUUAUCCAGUUUUUUCCCCCUUUACCUGCAUAGUUGCUACAUACAUGUUUCUCACUGUAAAAGGCUGCCGCUGGGUGGCAGAAGCCAAAUGGAAUUCUCGGGUGCCAA: 0.469
